Assay results from different studies.
Protocols differ between the studies behind these lines. Numbers after ± are the reported error. Values after ≈ are worked out from the molar mass of the structure shown.
Organism: Escherichia coli

SMILES	test	test system	setting	how to read	endpoint	value
C[C@@H](O)[C@H]1C(=O)N2C(C(=O)O)=C(SCCN=CN)C[C@H]12		DH5a clone with KPC-100		baseline: empty vector strain	MIC fold increase	8 fold
Cn1c(=O)ccc2ccc(F)c(CCNC[C@H]3CN(c4cnc5c(n4)NC(=O)CO5)C(=O)O3)c21					MIC50	0.12 mg/L (≈ 0.256 µM)
CC[C@@H](C)[C@@H](N)C(=O)N[C@@H](C(=O)N[C@H](Cc1ccc(O)cc1)C(=O)N[C@@H](C(=O)N[C@H](CCN)C(=O)N[C@H](CC(C)C)C(=O)N[C@H](CO)C(=O)N[C@H](CCN)C(=O)N[C@@H](C(=O)N[C@H](CCN)C(=O)N[C@H](Cc1c[nH]cn1)C(=O)N[C@H](CCN)C(=O)N[C@H](C)C(=O)N[C@H](CCN)C(=O)N[C@H](CCN)C(N)=O)[C@H](C)CC)[C@H](C)CC)[C@H](C)CC		ATCC 25922, Mueller-Hinton broth with 100% human serum		baseline: MH broth alone	MBC fold increase	2 fold
C[C@@H](O)[C@H]1C(=O)N2C(C(=O)O)=C(SCCN=CN)C[C@H]12	checkerboard	carbapenem-resistant	concentration not given, with: anionic gold nanoparticle 8 µg/mL	baseline: MIC alone over combination	MIC fold reduction	32 fold
CC[C@H](C)[C@H](NC(=O)[C@H](Cc1ccc(O)cc1)NC(=O)[C@@H](NC(=O)[C@H](Cc1c[nH]c2ccccc12)NC(=O)[C@@H]1CCCN1C(=O)[C@@H](NC(=O)[C@H](C)N)[C@@H](C)CC)[C@@H](C)CC)C(=O)N[C@@H](Cc1ccc(O)cc1)C(=O)N[C@@H](CCCNC(=N)N)C(=O)N[C@@H](CC(C)C)C(=O)N[C@@H](CC(C)C)C(=O)N[C@@H](CCCNC(=N)N)C(=O)N[C@@H](CCCCN)C(=O)NCC(=O)O		D31	18 h, 37 °C		MBC	7.5 µM (≈ 13.2 µg/mL)
CC[C@H](C)[C@H](NC(=O)[C@H](CC(C)C)NC(=O)[C@@H](NC(=O)[C@H](CCCNC(=N)N)NC(=O)[C@H](CCCNC(=N)N)NC(=O)[C@H](CCCNC(=N)N)NC(=O)[C@@H](N)CCCNC(=N)N)[C@@H](C)CC)C(=O)N[C@@H](CCCNC(=N)N)C(=O)N[C@@H](CCCNC(=N)N)C(=O)N[C@H](C(=O)N[C@@H](CC(C)C)C(=O)N[C@@H](CCCNC(=N)N)C(=O)N[C@@H](CC(C)C)C(=O)N[C@@H](CCCNC(=N)N)C(=O)N[C@@H](CO)C(=O)N[C@@H](CO)C(=O)N[C@@H](C)C(=O)N[C@@H](Cc1ccc(O)cc1)C(N)=O)C(C)C	checkerboard		unit not given, with: rifampicin	lower means synergy	FICI	0.16
CC(C)[C@@H]1NC(=O)[C@H](C)OC(=O)[C@@H](C(C)C)NC(=O)[C@@H](C(C)C)OC(=O)[C@H](C(C)C)NC(=O)[C@H](C)OC(=O)[C@@H](C(C)C)NC(=O)[C@@H](C(C)C)OC(=O)[C@H](C(C)C)NC(=O)[C@H](C)OC(=O)[C@@H](C(C)C)NC(=O)[C@@H](C(C)C)OC1=O	checkerboard	tetracycline-resistant (pBR322)	20 µM, with: tetracycline		tetracycline MIC	450 ± 100 µM
N=C(N)c1ccc(OCCCCCOc2ccc(C(=N)N)cc2)cc1	checkerboard	BW25113 mcr-1 plasmid	unit not given, with: rifampicin	lower = stronger synergy	FICI	≤ 0.25
C[C@@H](O)[C@H]1C(=O)N2C(C(=O)O)=C(S[C@@H]3CN[C@H](C(=O)N(C)C)C3)[C@H](C)[C@H]12		NDM-1 positive	10 µg/disk, compound alone		inhibition zone diameter	11.2 mm
CC[C@H](C)[C@H](NC(=O)[C@H](CCCNC(=N)N)NC(=O)[C@H](CCCNC(=N)N)NC(=O)[C@H](CCCNC(=N)N)NC(=O)[C@H](CCCNC(=N)N)NC(=O)[C@H](CC(C)C)NC(=O)[C@H](CCCNC(=N)N)NC(=O)[C@H](CO)NC(=O)[C@@H](N)CO)C(=O)N[C@H](C(=O)N[C@@H](CC(C)C)C(=O)N[C@@H](CCCNC(=N)N)C(=O)N[C@@H](CCCNC(=N)N)C(=O)N[C@@H](CCCNC(=N)N)C(=O)N[C@@H](CCCNC(=N)N)C(=O)N[C@@H](Cc1ccccc1)C(=O)N[C@@H](CO)C(=O)N[C@@H](C)C(=O)N[C@@H](Cc1ccc(O)cc1)C(N)=O)C(C)C	checkerboard		unit not given, with: rifampicin	lower means synergy	FICI	0.13
C[C@@H](O)[C@H]1C(=O)N2C(C(=O)O)=C(S[C@@H]3CN[C@H](C(=O)Nc4cccc(C(=O)O)c4)C3)[C@H](C)[C@H]12	checkerboard	carbapenem-resistant	concentration not given, with: anionic gold nanoparticle 8 µg/mL	baseline: MIC alone over combination	MIC fold reduction	> 64 fold
CC[C@H](C)[C@H](NC(=O)[C@H](CC(C)C)NC(=O)[C@H](CCCNC(=N)N)NC(=O)[C@H](CC(C)C)NC(=O)[C@@H](NC(=O)[C@@H](NC(=O)[C@H](CCCNC(=N)N)NC(=O)[C@@H](NC(=O)[C@@H](NC(=O)[C@H](CCCNC(=N)N)NC(=O)[C@H](CCCNC(=N)N)NC(=O)[C@H](CCCNC(=N)N)NC(=O)[C@H](CO)NC(=O)[C@@H](N)CCCNC(=N)N)[C@@H](C)CC)[C@@H](C)CC)[C@@H](C)CC)C(C)C)C(=O)N[C@@H](CCCNC(=N)N)C(=O)N[C@@H](CCCNC(=N)N)C(=O)N[C@@H](CO)C(=O)N[C@@H](C)C(=O)N[C@@H](CCCNC(=N)N)C(N)=O					MIC range	1 to 2 µM (≈ 2.45 to 4.89 µg/mL)
COC(=O)c1ccc2c(ccc3oc([N+](=O)[O-])cc32)c1	REMA				MIC90	> 32 mg/L
CC(C)C[C@H](NC(=O)[C@H](CCN)NC(=O)[C@H](CCN)NC(=O)[C@@H](Cc1ccccc1)NC(=O)[C@H](CC(C)C)NC(=O)[C@H](CCN)NC(=O)[C@H](CCN)NC(=O)[C@@H](CCN)NC(=O)CCSCCOC(=O)c1ccc(C(C)(C)C)cc1)C(N)=O		ATCC 10546	24 h, 37 °C		MBC	8 µM (≈ 9.47 µg/mL)
O=C(O)c1cn(C2CC2)c2cc(N3CCNCC3)c(F)cc2c1=O		ATCC 25922, BALB/c mice, Escherichia coli infected	intravenous, 10 mg/kg, 7 days, dosed 1 h after infection		survival	100%
CC[C@H](C)[C@H](N)C(=O)N[C@@H](CO)C(=O)N[C@@H](Cc1ccccc1)C(=O)N[C@@H](CC(C)C)C(=O)NCC(=O)N[C@@H](CO)C(=O)N[C@@H](CCCCN)C(=O)N[C@H](C(=O)N[C@H](C(=O)N[C@H](C(=O)N[C@@H](CC(C)C)C(=O)N[C@@H](CC(C)C)C(=O)N[C@@H](CCCCN)C(=O)N[C@@H](CCCNC(=N)N)C(=O)N[C@@H](CCCNC(=N)N)C(=O)N[C@@H](CCCCN)C(=O)N[C@@H](CCCNC(=N)N)C(=O)N[C@@H](CCCCN)C(=O)N[C@@H](CCCNC(=N)N)C(=O)N[C@@H](CCCCN)C(N)=O)C(C)C)C(C)C)C(C)C	checkerboard		unit not given, with: rifampicin	lower means synergy	FICI	0.27
COc1ccc2ccc3oc([N+](=O)[O-])cc3c2c1Br	REMA				MIC90	0.1 mg/L (≈ 0.31 µM)
CCCCCC(=O)N[C@@H](CCCNC(=N)N)C(=O)N[C@@H](CCCNC(=N)N)C(=O)N[C@@H](CCCNC(=N)N)C(=O)N[C@@H](CCCNC(=N)N)C(=O)N[C@H](C(=O)N[C@@H](CC(C)C)C(=O)N[C@H](C(=O)N[C@@H](CCCCN)C(=O)N[C@@H](CCCCN)C(=O)N[C@H](C(=O)N[C@@H](CC(C)C)C(=O)N[C@@H](CCCCN)C(=O)N[C@@H](CC(C)C)C(=O)N[C@@H](CCCCN)C(=O)N[C@@H](CO)C(=O)N[C@@H](CO)C(=O)N[C@@H](C)C(=O)N[C@@H](Cc1ccc(O)cc1)C(N)=O)C(C)C)[C@@H](C)CC)[C@@H](C)CC	checkerboard		unit not given, with: rifampicin	lower means synergy	FICI	0.16
CC(C)[C@@H]1NC(=O)CNC(=O)[C@H](CC(N)=O)NC(=O)[C@H](CCCNC(=N)N)NC(=O)[C@H](Cc2ccc(O)cc2)NC(=O)[C@H](C(C)C)NC(=O)[C@@H](NC(=O)[C@@H](NC(=O)[C@H](CC(N)=O)NC(=O)[C@H](Cc2c[nH]c3ccccc23)NC(=O)[C@H](C)NC(=O)[C@H](Cc2ccccc2)NC(=O)CN)C(C)C)CSSC[C@@H](C(=O)N[C@@H](Cc2c[nH]cn2)C(=O)N[C@@H](CCCNC(=N)N)C(=O)N[C@@H](CCCNC(=N)N)C(=O)N[C@@H](C)C(=O)N[C@@H](CC(N)=O)C(N)=O)NC(=O)[C@H](C(C)C)NC(=O)[C@H](CCCNC(=N)N)NC1=O	bactericidal activity	CGMCC 1.9	24 h		Emax	-4.84 log CFU
CCCCc1c([N+](=O)[O-])oc2ccc3ccccc3c12	REMA				MIC90	> 32 mg/L
COc1ccc(CC2NCCc3cc(OC)c(OC)cc32)cc1OC.Cl (stereo not shown)			24 h, 37 °C		MBC	> 1600 µM
CCCCCCCCCCCc1c([N+](=O)[O-])oc2ccc3ccccc3c12	REMA				MIC90	> 32 mg/L
CC(C)C[C@H](NC(=O)[C@H](CCCCN)NC(=O)OCC1c2ccccc2-c2ccccc21)C(=O)N[C@H](C(=O)N[C@@H](Cc1ccccc1)C(=O)N[C@@H](Cc1ccccc1)C(=O)N[C@@H](CCCCN)C(=O)NCC(=O)N[C@@H](Cc1ccccc1)C(=O)N[C@@H](C)C(=O)N[C@@H](Cc1c[nH]c2ccccc12)C(=O)N[C@@H](CC(N)=O)C(=O)N[C@H](C(=O)N[C@H]1CSSC[C@@H](C(=O)N[C@@H](Cc2c[nH]cn2)C(=O)N[C@@H](CCCNC(=N)N)C(=O)N[C@@H](CCCNC(=N)N)C(=O)N[C@@H](C)C(=O)N[C@@H](CC(N)=O)C(N)=O)NC(=O)[C@H](C(C)C)NC(=O)[C@H](CCCNC(=N)N)NC(=O)[C@H](C(C)C)NC(=O)CNC(=O)[C@H](CC(N)=O)NC(=O)[C@H](CCCNC(=N)N)NC(=O)[C@H](Cc2ccc(O)cc2)NC(=O)[C@H](C(C)C)NC1=O)C(C)C)C(C)C	bactericidal activity	CGMCC 1.9	24 h		Emax	-5.13 log CFU
COc1cc2oc([N+](=O)[O-])cc2c2ccccc12	REMA				MIC90	> 32 mg/L
C[C@@H](O)[C@H]1C(=O)N2C(C(=O)O)=C(S[C@@H]3CN[C@H](C(=O)N(C)C)C3)[C@H](C)[C@H]12		DH5a clone with KPC-136		baseline: empty vector strain	MIC fold increase	> 16 fold

Excerpt of the above:
SMILES	test	test system	setting	how to read	endpoint	value
CC[C@H](C)[C@H](NC(=O)[C@H](Cc1ccc(O)cc1)NC(=O)[C@@H](NC(=O)[C@H](Cc1c[nH]c2ccccc12)NC(=O)[C@@H]1CCCN1C(=O)[C@@H](NC(=O)[C@H](C)N)[C@@H](C)CC)[C@@H](C)CC)C(=O)N[C@@H](Cc1ccc(O)cc1)C(=O)N[C@@H](CCCNC(=N)N)C(=O)N[C@@H](CC(C)C)C(=O)N[C@@H](CC(C)C)C(=O)N[C@@H](CCCNC(=N)N)C(=O)N[C@@H](CCCCN)C(=O)NCC(=O)O		D31	18 h, 37 °C		MBC	7.5 µM (≈ 13.2 µg/mL)
CC[C@H](C)[C@H](NC(=O)[C@H](CC(C)C)NC(=O)[C@@H](NC(=O)[C@H](CCCNC(=N)N)NC(=O)[C@H](CCCNC(=N)N)NC(=O)[C@H](CCCNC(=N)N)NC(=O)[C@@H](N)CCCNC(=N)N)[C@@H](C)CC)C(=O)N[C@@H](CCCNC(=N)N)C(=O)N[C@@H](CCCNC(=N)N)C(=O)N[C@H](C(=O)N[C@@H](CC(C)C)C(=O)N[C@@H](CCCNC(=N)N)C(=O)N[C@@H](CC(C)C)C(=O)N[C@@H](CCCNC(=N)N)C(=O)N[C@@H](CO)C(=O)N[C@@H](CO)C(=O)N[C@@H](C)C(=O)N[C@@H](Cc1ccc(O)cc1)C(N)=O)C(C)C	checkerboard		unit not given, with: rifampicin	lower means synergy	FICI	0.16
CC(C)[C@@H]1NC(=O)[C@H](C)OC(=O)[C@@H](C(C)C)NC(=O)[C@@H](C(C)C)OC(=O)[C@H](C(C)C)NC(=O)[C@H](C)OC(=O)[C@@H](C(C)C)NC(=O)[C@@H](C(C)C)OC(=O)[C@H](C(C)C)NC(=O)[C@H](C)OC(=O)[C@@H](C(C)C)NC(=O)[C@@H](C(C)C)OC1=O	checkerboard	tetracycline-resistant (pBR322)	20 µM, with: tetracycline		tetracycline MIC	450 ± 100 µM
N=C(N)c1ccc(OCCCCCOc2ccc(C(=N)N)cc2)cc1	checkerboard	BW25113 mcr-1 plasmid	unit not given, with: rifampicin	lower = stronger synergy	FICI	≤ 0.25
